# Experimental data pooled from the literature.
# Every numbered part comes from another study and shows a few of its results, in no order. Positions count from the first letter of the parent shown.

# Sample 1
# Target: CCND3, cyclin fold, Cln2 fusion (human)
# Method: yeast growth competition, sequencing
# Sample: yeast
# Setting: weak parent motif
# Relative to: not given
# Reading: higher = stronger binding
# Parent: PKMYT1 docking peptide (human); SFEPRNLLSLFED; partner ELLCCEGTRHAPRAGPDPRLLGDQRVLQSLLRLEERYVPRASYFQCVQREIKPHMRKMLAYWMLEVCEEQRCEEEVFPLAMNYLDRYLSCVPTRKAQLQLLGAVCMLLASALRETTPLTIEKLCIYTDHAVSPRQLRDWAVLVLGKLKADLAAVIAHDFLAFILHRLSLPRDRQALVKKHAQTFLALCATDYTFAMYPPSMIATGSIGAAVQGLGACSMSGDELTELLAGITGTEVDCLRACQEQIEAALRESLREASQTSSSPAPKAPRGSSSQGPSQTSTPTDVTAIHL
Variant,normalised enrichment score
S9N,0.138
S9C,0.0173
E12L,-0.0711
E3I,0.0162
E12K,0.0112
F2C,0.0973
N6Q,0.122
F11N,0.0872
L7H,0.0769
R5Q,0.0751
P4V,0.0367
N6M,-0.0583
F2H,0.0554
L10H,0.117
D13W,-0.00265
D13P,0.154
P4Y,0.0321
D13T,0.066

# Sample 2
# Target: RNA binding protein fox-1 homolog 2, RRM domain, GST-SBP tag (RBFOX2, Homo sapiens, UniProt O43251-10, residues 100-194)
# Method: RNA Bind-n-Seq
# Molecule type: RNA
# Sample: in vitro
# Concentration: 365 nM
# Setting: natural RNA segment, single round, ends assumed
# Relative to: no-protein control
# Reading: higher = stronger binding
# All sequences stand within: GGGAGUUCUACAGUCCGACGAUC … UGGAAUUCUCGGGUGCCAA
# Residues (chain): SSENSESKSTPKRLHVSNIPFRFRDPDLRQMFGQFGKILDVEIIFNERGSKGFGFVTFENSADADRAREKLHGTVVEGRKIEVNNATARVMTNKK
Strand,RBNS enrichment (R)
UGAGAAGAAGCACAAUUUUGAUUUUGAUGAGUCACUUUCUGUAAACAAUCUUGGUCUAUCUUUACCCUUAUACCUUAUCUGUAAUUUACCAUUUAUUGUAUUUGCAAAGC,0.294
ACAAAGGGAAACAGAUACUUGAUAUGAAAGCCAUAAUGACGGUGACUUGUGUCGUGGGGGAAAACAUAAGGUCAUUUUCUCCCUCUACUCACAAUACUAAAGGGAAAAAA,0.77
AUUUUCAAACUGAAAACUAAUCAAAUAUAGUGCCUAUUUAGUCUCAAAAUAAGGUAACUAUUAACUUGAUUAUACUAUAUAAUAUUCUCAAUUACAUUUGAAUUUAAAAA,0.93
CACGGUGGGGACAGGGCAGAUUUAUGAGAAAUAUCAAUUGCCCCUCUCUUCUGGACCAAUUCCUUAACCUUGGGAAAGCUCAGGGCCUAGUAUCAGGGUGGGUGAUAGAA,0.486
UGUGGAGUCUUCUGUCUUCAUUUUGGCCCCAGCAUUCUUAAUUUCAAAGCUUUAUUCUGUCUGCCUAAGAGAAUCAACCAAAGGUGAUUCUCCUAAAGAGCAGUGAAGGA,0.308
UUUUUUGUUUGUUUGUUUUUAAGAAACAAGAAAACAGAACUGCCUUUGCACUAAAUUAGUGACUUGGACUUUUGCCCAGUGAAGACAGGCUGUGACACUCUGGAUGUCUU,0.346
CUGCUUCACUUUCUCCAACCCUUCGUAGCUGCCUGGGCUCUUUUCCAACCUGUCAGGCUGGCGCCUUAGAACUGAGCCUUAGGUUGGGCAGCGGGUCUCUGUCCUGGUAU,0.536
CGAGUGUGGACAACCACACCUGGCUCUGGCGUCUGGCGGUCACUUGACGCUCAUCUGCGUCUCCGUCUGCUAGGUGGUCGGUGAUAAAUUCAAAUGUAUCAGAUCUCUGU,0.168

# Sample 3
# Target: ABI1, truncated, D143A, DHFR fusion (Arabidopsis thaliana)
# Method: DHFR PCA, deep sequencing
# Sample: yeast
# Setting: methotrexate growth selection, single substitutions
# Together with: (+)-ABA 58 µM
# Relative to: wild-type fitted maximum
# Reading: higher = stronger binding
# Parent: PYL1, truncated, DHFR fusion (Arabidopsis thaliana); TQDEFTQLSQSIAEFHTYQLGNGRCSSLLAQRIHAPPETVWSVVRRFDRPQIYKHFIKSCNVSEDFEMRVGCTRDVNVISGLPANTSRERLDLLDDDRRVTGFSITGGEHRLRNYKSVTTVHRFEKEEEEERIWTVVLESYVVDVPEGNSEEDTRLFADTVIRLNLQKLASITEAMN
Variant,relative binding score [%]
R69F,69.9
A30N,63.3
F157I,58.4
E14F,41.3
G102S,87.2
E64L,76.5
V78R,7.34
S26M,82
T160F,84.4
N85P,40.2
I105H,-9.17
Q19L,76.1
T39S,87.1
T120V,-0.976
D75W,80.3
N77M,85.4
E127F,95.7
V100I,92.8

# Sample 4
# Target: Interferon regulatory factor 7, full length, phosphomimetic (IRF7, Homo sapiens, UniProt Q92985, residues 1-503, S101K/S471D/S472D/S475D/S476D/S477D/S483D/S484D/S487D)
# Method: protein-binding microarray
# Molecule type: double-stranded DNA, one strand shown
# Sample: in vitro
# Concentration: 250 nM
# Setting: 60-bp whole probe
# Together with: salmon DNA 0.4 mg/ml
# Relative to: random background probes
# Reading: higher = stronger binding
# All sequences stand within: GCCTAGCAC … GTCTTGATTCGCTTGACGCTGCTG
# Construct (chain): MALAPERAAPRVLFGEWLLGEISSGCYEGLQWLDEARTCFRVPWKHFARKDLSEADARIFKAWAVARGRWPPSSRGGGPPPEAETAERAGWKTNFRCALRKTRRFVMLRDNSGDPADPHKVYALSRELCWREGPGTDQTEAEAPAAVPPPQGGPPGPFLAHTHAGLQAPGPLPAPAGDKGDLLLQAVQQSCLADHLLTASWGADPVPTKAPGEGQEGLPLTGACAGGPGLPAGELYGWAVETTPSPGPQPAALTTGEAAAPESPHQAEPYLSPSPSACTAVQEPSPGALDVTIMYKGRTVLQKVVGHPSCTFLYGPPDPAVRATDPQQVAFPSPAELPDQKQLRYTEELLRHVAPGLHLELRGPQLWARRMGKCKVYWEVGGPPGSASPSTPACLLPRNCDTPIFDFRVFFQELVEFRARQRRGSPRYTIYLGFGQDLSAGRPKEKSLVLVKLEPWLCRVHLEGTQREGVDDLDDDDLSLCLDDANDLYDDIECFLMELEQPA
Strand,log fluorescence
AAGGTATTATTTATTGTAGCGTGCTAG,0.554 z-score
CTCCCCCTCCCCCTCAGATCGTGCTAG,-0.203 z-score
TTAGATCTCAGTATCGATGAGTGCTAG,0.231 z-score
GACGGTATCCTTATCCTGTCGTGCTAG,0.438 z-score
ATTTCTTTCTAATTCAAAGTGTGCTAG,2.25 z-score
GACTGTATCCTTATCCTGACGTGCTAG,0.29 z-score
GACGGTATCCTTATCCTGAAGTGCTAG,0.308 z-score
GACGATTTCAGTATCGAGATGTGCTAG,0.416 z-score
TTAGGACAGGGGACTGGGTTAGTGCTA,-0.33 z-score
GACGATATCCGGACTGGAGACGTGCTA,-0.192 z-score
TCACTTTCCATTTCTGTTACTGTGCTA,4.23 z-score
GACGGACTGATACTGCTGACGTGCTAG,-0.459 z-score

# Excerpt of the above (sample 3):
Variant,relative binding score [%]
T120V,-0.976
S26M,82
E127F,95.7
T39S,87.1
